Experimental data gathered from unrelated publications.
Each numbered part is a random draw from the data of one study; scales do not carry over between parts.
UniProt P42685, sequence (whole entry, looked up): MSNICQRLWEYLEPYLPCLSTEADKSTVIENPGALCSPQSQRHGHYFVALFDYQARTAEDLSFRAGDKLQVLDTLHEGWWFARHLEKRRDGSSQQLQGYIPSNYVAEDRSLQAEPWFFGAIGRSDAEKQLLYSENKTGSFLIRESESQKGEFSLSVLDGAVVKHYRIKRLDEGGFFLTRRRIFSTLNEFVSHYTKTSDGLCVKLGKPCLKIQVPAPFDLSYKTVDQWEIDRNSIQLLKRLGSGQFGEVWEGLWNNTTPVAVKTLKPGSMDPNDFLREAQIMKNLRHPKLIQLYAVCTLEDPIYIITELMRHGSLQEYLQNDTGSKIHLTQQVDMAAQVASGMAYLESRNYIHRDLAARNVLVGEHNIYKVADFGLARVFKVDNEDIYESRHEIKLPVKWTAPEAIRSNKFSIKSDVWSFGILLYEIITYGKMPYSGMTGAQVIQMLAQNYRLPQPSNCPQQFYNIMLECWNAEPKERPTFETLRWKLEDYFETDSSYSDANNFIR
UniProt Q9UL54, sequence (whole entry, looked up): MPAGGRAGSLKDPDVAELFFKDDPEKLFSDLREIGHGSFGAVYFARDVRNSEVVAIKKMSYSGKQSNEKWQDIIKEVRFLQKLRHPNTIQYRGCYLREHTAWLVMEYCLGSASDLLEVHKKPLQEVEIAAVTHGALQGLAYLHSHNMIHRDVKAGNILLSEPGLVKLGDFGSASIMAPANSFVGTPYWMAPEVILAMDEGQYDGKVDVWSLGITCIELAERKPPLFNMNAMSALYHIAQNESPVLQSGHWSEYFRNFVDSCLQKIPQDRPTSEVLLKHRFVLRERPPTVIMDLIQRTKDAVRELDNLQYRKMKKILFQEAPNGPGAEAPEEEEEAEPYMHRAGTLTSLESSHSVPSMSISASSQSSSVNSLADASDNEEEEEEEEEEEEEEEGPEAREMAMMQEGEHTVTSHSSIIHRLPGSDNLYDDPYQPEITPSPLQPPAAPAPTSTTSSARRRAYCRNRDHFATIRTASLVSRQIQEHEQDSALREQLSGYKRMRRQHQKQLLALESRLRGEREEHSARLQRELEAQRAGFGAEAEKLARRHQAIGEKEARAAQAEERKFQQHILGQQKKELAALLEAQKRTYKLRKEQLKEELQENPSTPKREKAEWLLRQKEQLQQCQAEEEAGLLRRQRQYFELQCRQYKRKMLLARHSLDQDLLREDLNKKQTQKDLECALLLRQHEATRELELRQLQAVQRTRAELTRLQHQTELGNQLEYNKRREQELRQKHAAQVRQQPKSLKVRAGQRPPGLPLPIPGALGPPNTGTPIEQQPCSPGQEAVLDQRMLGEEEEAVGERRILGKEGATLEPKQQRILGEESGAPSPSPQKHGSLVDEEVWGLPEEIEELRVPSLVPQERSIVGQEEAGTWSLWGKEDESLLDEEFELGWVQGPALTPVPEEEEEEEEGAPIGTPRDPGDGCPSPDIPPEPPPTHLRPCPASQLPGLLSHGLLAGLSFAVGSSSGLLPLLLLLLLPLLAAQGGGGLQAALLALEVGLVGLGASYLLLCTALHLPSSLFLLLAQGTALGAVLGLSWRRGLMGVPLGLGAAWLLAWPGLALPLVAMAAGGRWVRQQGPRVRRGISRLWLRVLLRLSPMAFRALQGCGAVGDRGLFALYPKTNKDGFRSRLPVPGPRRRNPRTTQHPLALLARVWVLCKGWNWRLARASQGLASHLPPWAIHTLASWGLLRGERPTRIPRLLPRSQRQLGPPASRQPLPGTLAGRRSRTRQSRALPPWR
UniProt P52333, sequence (whole entry, looked up): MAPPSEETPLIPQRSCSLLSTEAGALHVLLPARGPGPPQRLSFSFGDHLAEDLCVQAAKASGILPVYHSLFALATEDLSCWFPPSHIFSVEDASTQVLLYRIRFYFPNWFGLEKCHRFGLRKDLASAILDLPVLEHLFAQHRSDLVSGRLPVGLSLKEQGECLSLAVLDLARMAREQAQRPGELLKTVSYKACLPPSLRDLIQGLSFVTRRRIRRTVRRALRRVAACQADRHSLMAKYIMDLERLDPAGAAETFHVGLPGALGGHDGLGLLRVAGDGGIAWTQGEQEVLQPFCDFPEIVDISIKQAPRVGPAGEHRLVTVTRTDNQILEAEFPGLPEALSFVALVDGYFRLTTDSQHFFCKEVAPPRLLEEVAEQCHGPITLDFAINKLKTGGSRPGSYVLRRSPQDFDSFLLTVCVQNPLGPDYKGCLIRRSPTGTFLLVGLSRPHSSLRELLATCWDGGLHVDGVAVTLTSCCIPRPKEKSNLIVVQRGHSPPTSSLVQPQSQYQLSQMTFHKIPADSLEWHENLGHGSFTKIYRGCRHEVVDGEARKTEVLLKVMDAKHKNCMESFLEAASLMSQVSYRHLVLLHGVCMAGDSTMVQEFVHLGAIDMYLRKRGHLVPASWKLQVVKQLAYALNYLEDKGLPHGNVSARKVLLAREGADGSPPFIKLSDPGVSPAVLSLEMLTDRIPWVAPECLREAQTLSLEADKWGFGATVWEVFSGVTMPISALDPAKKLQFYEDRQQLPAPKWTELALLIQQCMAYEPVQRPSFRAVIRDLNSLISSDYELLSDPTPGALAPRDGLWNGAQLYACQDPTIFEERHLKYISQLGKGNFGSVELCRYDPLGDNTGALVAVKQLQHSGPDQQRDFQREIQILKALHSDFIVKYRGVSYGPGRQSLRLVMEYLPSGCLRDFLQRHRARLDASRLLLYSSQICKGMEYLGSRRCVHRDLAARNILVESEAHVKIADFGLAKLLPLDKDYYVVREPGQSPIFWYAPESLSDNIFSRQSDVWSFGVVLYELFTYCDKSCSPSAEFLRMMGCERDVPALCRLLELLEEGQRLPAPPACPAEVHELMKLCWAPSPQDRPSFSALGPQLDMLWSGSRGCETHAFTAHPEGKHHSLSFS
UniProt P0C1S8, sequence (whole entry, looked up): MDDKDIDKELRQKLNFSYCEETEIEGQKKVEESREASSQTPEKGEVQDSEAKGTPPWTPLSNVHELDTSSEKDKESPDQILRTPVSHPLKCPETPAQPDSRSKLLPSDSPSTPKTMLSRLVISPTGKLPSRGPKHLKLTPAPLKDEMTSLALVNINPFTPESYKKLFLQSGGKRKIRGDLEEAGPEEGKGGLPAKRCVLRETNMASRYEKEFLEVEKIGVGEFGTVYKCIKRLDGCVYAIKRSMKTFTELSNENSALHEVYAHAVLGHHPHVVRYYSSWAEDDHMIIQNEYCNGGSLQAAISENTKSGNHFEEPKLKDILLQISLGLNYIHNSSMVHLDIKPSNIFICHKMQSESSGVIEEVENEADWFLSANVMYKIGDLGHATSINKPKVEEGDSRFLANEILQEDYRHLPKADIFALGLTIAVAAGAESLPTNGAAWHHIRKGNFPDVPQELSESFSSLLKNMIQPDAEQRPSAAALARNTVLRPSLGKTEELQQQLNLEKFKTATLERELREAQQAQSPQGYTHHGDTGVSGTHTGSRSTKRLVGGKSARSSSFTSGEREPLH
UniProt P35626, sequence (whole entry, looked up): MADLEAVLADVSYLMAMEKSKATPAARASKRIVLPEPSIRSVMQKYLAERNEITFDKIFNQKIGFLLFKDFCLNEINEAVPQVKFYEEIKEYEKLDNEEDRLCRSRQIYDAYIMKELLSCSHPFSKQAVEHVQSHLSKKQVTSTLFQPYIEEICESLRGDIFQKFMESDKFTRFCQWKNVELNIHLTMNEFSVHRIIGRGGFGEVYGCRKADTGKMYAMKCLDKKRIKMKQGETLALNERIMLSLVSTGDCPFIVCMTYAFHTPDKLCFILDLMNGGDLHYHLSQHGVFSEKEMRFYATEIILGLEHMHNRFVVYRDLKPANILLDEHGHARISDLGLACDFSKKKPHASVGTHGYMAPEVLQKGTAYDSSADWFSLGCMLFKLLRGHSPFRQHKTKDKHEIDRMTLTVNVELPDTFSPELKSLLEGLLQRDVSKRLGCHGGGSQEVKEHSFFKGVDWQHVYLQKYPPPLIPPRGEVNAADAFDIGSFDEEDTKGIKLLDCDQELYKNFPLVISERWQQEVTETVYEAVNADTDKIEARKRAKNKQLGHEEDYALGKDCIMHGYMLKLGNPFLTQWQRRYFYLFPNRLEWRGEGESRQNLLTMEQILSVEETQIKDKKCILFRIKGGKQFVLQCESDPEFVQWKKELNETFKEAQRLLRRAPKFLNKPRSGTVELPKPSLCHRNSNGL
UniProt P37023, sequence (whole entry, looked up): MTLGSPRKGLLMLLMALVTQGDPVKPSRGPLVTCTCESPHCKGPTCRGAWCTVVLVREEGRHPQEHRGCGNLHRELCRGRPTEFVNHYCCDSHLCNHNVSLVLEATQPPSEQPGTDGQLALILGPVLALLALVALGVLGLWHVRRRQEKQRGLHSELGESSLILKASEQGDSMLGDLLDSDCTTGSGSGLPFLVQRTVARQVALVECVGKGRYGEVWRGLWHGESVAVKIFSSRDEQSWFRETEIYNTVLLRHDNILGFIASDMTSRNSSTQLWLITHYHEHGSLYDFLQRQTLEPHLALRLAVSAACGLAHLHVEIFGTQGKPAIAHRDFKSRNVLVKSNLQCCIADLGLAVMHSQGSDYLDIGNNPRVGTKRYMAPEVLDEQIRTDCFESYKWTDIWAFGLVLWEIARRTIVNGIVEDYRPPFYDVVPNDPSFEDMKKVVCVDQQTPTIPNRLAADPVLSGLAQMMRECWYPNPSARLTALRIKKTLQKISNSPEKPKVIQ
UniProt Q9HC98, sequence (whole entry, looked up): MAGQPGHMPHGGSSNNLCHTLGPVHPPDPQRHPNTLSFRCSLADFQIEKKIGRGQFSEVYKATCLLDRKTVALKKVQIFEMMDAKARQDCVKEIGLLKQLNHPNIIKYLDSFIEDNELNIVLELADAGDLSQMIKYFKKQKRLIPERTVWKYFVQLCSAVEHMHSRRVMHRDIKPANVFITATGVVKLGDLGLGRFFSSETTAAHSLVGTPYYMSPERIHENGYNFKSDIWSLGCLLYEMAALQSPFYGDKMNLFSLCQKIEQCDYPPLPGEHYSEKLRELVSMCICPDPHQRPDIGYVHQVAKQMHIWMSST

Block 1
Target: Sal-like protein 4, full length isoform B (SALL4, Homo sapiens, UniProt Q9UJQ4-2, residues 1-616)
Method: universal PBM
Form: double-stranded DNA, one strand shown
Medium: in vitro
Concentration: not given
Notes: 8-mer, flanks averaged, mean of replicates
Reading: higher = stronger binding
| Sequence | E-score |
| --- | --- |
| GTCCCCAA | -0.0774 |
| ATTGCGCA | -0.0807 |
| CCTGGACA | -0.206 |
| GGAAAGCA | -0.00712 |
| TTGAGAAA | 0.264 |
| CCTTAAAG | 0.0125 |
| ATGTCATA | 0.345 |
| ACACTCGC | -0.159 |

Block 2
Structure (SMILES): CCOC(=O)c1c(C)[nH]c(/C=C2\C(=O)Nc3ccccc32)c1C
Observed: enzyme activity
Mode: inhibitor
Concentration: 0.5 µM
Relative to: control
| target | remaining activity |
| --- | --- |
| JAK3 (Homo sapiens, UniProt P52333) | 69.1% |
| MAPKAPK2 (Homo sapiens, UniProt P49137) | 98.6% |
| MAPK3 (Homo sapiens, UniProt P27361) | 101% |
| NEK6 (Homo sapiens, UniProt Q9HC98) | 98.1% |
| FRK (Homo sapiens, UniProt P42685) | 95.3% |
| EPHA3 (Homo sapiens, UniProt P29320) | 96.3% |
| MST1R (Homo sapiens, UniProt Q04912) | 87.5% |
| TAOK2 (Homo sapiens, UniProt Q9UL54) | 105% |

Block 3
Target: Hepatocyte nuclear factor 3-alpha (Foxa1, Mus musculus, UniProt P35582, residues 1-468, full length assumed)
Method: EMSA with sequencing
Form: double-stranded DNA, one strand shown
Medium: in vitro
Concentration: 10 and 20 nM
Notes: whole designed probe, mean of two concentrations, ends assumed
Relative to: negative control set to 0
Reading: higher = stronger binding
All sequences stand within: GTGAGCGGTGCCCATTGATGGGGAAC … TTTCACTGGGATCGTGGGGAC
Residues (chain): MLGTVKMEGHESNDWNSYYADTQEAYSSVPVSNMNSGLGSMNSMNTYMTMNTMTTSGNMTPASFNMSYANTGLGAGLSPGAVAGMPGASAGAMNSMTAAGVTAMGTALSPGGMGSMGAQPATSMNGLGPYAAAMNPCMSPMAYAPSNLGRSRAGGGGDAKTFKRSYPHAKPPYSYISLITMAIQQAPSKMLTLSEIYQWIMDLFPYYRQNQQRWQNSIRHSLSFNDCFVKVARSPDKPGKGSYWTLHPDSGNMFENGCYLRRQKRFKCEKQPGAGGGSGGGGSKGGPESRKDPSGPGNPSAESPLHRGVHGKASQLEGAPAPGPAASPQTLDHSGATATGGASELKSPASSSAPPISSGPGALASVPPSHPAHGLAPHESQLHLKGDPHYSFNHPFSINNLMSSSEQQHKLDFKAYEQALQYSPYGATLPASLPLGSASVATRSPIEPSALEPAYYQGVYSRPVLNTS
| Sequence | normalised bound fraction |
| --- | --- |
| TAATATACTATATGGAATAATGACTTTCTATATCCGTAATCAATATTTACTTTGAATATCAGTAGGTTGAGTTAGTAGTTTGATTCTGGTCCCTTGTTTACTCTGATGCAATCCCCTGTAAGAAGGACCTGACAAAGTGCCTGGTGAATGGGGTTCAGTACATGCCAGTACCTTTTCTTTCCCTGCTAATGCG | 0.439 ratio |
| AAATGTAAAACTGCTGAAAAGATAAGAAGAAATGAATAAATCTATAATTAAGACGGAAATCTTTAATAGGCCATAGGCCTCAGGAGTCCTCAAAGTAATCTAAAAATGCACAAGCATGCTTATCTTAAAGGATTAAATAGGTATTTTTAAAATATTGATTTAATACACATGTAGAACTATTAAGTAACAAAAT | 0.0528 ratio |
| GCTCCTTTGCAGAGAATAAGATTTGATTTCATGCTTATCCATATGTTCTTAATAACTGCTTCCTTGACTTGTAAGATAAGACTAAGTTTTCCTGTTTACTCAGATTCTTCTAAAAGTCTCTTCTCCAGTTTGGAGAAAGGAAGAAAGTACATTGTTCCATTTATAGTTAACTAGTAGATTGATTGCAAATATC | 0.143 ratio |
| CTGCAGCACTACAGCCCCTTTCTAGGACATCCCTGAAGGATGCAGTGAAGGGAAATCTTCCCAGTGGGCAGAACTTCCAGCAGTGGTCCTGGTTGTGTACTTTGCATGGAAGGAGAAATAATCAAATGTGTGATTACATACTGATTCATGGGCTGCAGCCAATGGTTTGGCTGGATGGTCAGGGAGGTCATTC | 0.11 ratio |
| ATCTTCCCCCTCTTCCTTGCCCCACCAGCTCACCTTCCCGGGTTATTTGCACAAAGGAAAATAAATAAAGCCGGCATTCGTTAACCCTCTTCACGCGCATACTGCTGTTTGCTCTGGATCTAACATGGTCCTTTGGCGAGGCGTGGCTCCGGGAGAGCAAAGCACCGTGTCAGGGCCATGATCCGGGGTGGCC | 0.371 ratio |

Block 4
Compound: O=c1nc(-c2ccccn2)sc2ccccc12
Method: competition with immobilised ligand
Concentration: 1 µM
| target | observed | remaining binding [%] |
| --- | --- | --- |
| LRRK2 (Homo sapiens, UniProt Q5S007) | binding | 97 |
| STK32A (Homo sapiens, UniProt Q8WU08) | binding | 100 |
| SRPK2 (Homo sapiens, UniProt P78362) | binding | 100 |
| PRKCI (Homo sapiens, UniProt P41743) | cell-free assay | 100 |
| MAP2K4 (Homo sapiens, UniProt P45985) | binding | 100 |
| ACVRL1 (Homo sapiens, UniProt P37023) | binding | 99 |
| WEE2 (Homo sapiens, UniProt P0C1S8) | binding | 100 |
| FRK (Homo sapiens, UniProt P42685) | cell-free assay | 100 |
| PDGFRA (Homo sapiens, UniProt P16234) | cell-free assay | 89 |
| MAP4K1 (Homo sapiens, UniProt Q92918) | binding | 100 |
| CDKL5 (Homo sapiens, UniProt O76039) | binding | 100 |
| MYLK (Homo sapiens, UniProt Q15746) | binding | 67 |
| GRK3 (Homo sapiens, UniProt P35626) | binding | 51 |

Excerpt of the above (block 2):
| target | remaining activity |
| --- | --- |
| MAPKAPK2 (Homo sapiens, UniProt P49137) | 98.6% |
| MAPK3 (Homo sapiens, UniProt P27361) | 101% |
| NEK6 (Homo sapiens, UniProt Q9HC98) | 98.1% |
